{"data": "Results of several laboratories", "cell line": "Vero E6", "note": "Protocols differ between the studies behind these lines. Numbers after ± are the reported error."}
{"Structure (SMILES)": "O=C(CN1CCn2c(nnc2C(F)(F)F)C1)SC1=NC(c2ccc(C(F)(F)F)cc2)C(C(=O)Nc2ccc(S(=O)(=O)O)cc2)=C(C(F)(F)F)N1 (centres unmarked)", "technique": "MTT", "time": "48 h", "endpoint": "CC50", "result": "247 µM"}
{"Structure (SMILES)": "C[C@H]1[C@H](OC(=O)CC[C@@H](C)C2CCC3C4C(CC[C@@]32C)[C@@]2(C)CC[C@@H](O)CC2C[C@@H]4O)O[C@@H]2O[C@@]3(C)CCC4[C@H](C)CC[C@@H]1[C@]42OO3 (some centres unmarked)", "read-out": "cytotoxicity", "time": "24 h", "endpoint": "IC50", "result": "~100 µM"}
{"Structure (SMILES)": "Cc1ccc(NCCN(C)CCNc2ccnc3cc(Cl)ccc23)c2c(=O)c3ccccc3sc12", "technique": "nuclei count", "tested at": "25 µM", "endpoint": "cytotoxicity", "result": "not toxic"}
{"Structure (SMILES)": "CC12OOC(C)(OO1)C2CCC(=O)NCCCNc1ccnc2cc(Cl)ccc12 (centres unmarked)", "time": "72 h", "endpoint": "CC50", "result": "28 ± 2.9 µM"}
{"Structure (SMILES)": "COc1ccc(C(=O)OC2C(OC3C(O)COC(OC4CC5C6CC=C7CC(O)CCC7(C)C6CCC5(C)C4(O)C(C)C(=O)CCC(C)C)C3OC(C)=O)OCC(O)C2O)cc1 (centres unmarked)", "time": "3 days", "endpoint": "first cytotoxic concentration", "result": "0.007 µM"}
{"Structure (SMILES)": "Cc1ccc(NCCN(C)CCNc2ccnc3cc(Cl)ccc23)c2c(=O)c3ccccc3sc12", "tested at": "30.0 µM", "time": "72 (unit not given)", "endpoint": "cytotoxicity", "result": "< 20%"}
{"Structure (SMILES)": "COC(=O)CC[C@@H](C)C1CCC2C3C(CC[C@@]21C)[C@@]1(C)CC[C@@H](n2cc(CO[C@H]4O[C@@H]5O[C@@]6(C)CCC7[C@H](C)CC[C@@H]([C@H]4C)[C@]75OO6)nn2)CC1C[C@@H]3O (some centres unmarked)", "read-out": "cytotoxicity", "time": "24 h", "endpoint": "IC50", "result": "> 100 µM"}
{"Structure (SMILES)": "C=Cc1c(C)c2cc3nc(cc4[nH]c(cc5nc(cc1[nH]2)C(C)=C5CCC(=O)O)c(CCC(=O)OC)c4C)[C@@]1(C)C3=CC=C(C(=O)OC)[C@H]1C(=O)OC", "read-out": "cytotoxicity", "tested at": "30.0 µM", "time": "72 (unit not given)", "endpoint": "viability reduction", "result": "~22%"}
{"Structure (SMILES)": "Cn1nc(-c2ccc(C(F)(F)F)cc2)nc2c(=O)n(C)c(=O)nc1-2", "tested at": "concentration not given", "endpoint": "cytotoxicity", "result": "99.7%"}
{"Structure (SMILES)": "CC12OOC(C)(OO1)C2CCC(=O)OCCNc1ccnc2cc(Cl)ccc12 (centres unmarked)", "time": "72 h", "endpoint": "CC50", "result": "~37 µM"}
{"Structure (SMILES)": "NS(=O)(=O)c1cccc2c1C(=O)c1cccc(O)c1C2=O", "tested at": "concentration not given", "endpoint": "cytotoxicity", "result": "100%"}
{"Structure (SMILES)": "Clc1cc(Cl)cc(CCCN2CCCC3=CC4CC(CN5CCCCC45)C32)c1 (centres unmarked)", "endpoint": "CC50", "result": "110 µM"}
{"Structure (SMILES)": "COC(=O)c1cc2c(=O)n3ccccc3nc2n1Cc1ccccc1", "technique": "MTT", "endpoint": "IC50", "result": "> 200 µM"}
{"Structure (SMILES)": "CCN(CC)CCOC1CCC2(C)C(=CCC3C4CCC(=O)C4(C)CCC32)C1 (centres unmarked)", "time": "3 days", "endpoint": "first cytotoxic concentration", "result": "20 µM"}
{"note": "For quick reference, copied from above:"}
{"Structure (SMILES)": "C=Cc1c(C)c2cc3nc(cc4[nH]c(cc5nc(cc1[nH]2)C(C)=C5CCC(=O)O)c(CCC(=O)OC)c4C)[C@@]1(C)C3=CC=C(C(=O)OC)[C@H]1C(=O)OC", "read-out": "cytotoxicity", "tested at": "30.0 µM", "time": "72 (unit not given)", "endpoint": "viability reduction", "result": "~22%"}
{"Structure (SMILES)": "Cn1nc(-c2ccc(C(F)(F)F)cc2)nc2c(=O)n(C)c(=O)nc1-2", "tested at": "concentration not given", "endpoint": "cytotoxicity", "result": "99.7%"}
